Published values from different studies.
Every numbered part comes from another study and shows a few of its results, in no order. Positions count from the first letter of the parent shown.

Series 1
Target: RING finger protein unkempt homolog, zinc fingers 1-6, GST-SBP tag (UNK, Homo sapiens, UniProt Q9C0B0, residues 30-357)
Method: RNA Bind-n-Seq
Form: RNA
Matrix: in vitro
Concentration: not given
Setting: RNA with constant flanks, human and mouse sites, ends assumed
Relative to: input RNA pool
Reading: higher = stronger binding
Constant ends, left off below: GGGAGUUCUACAGUCCGACGAUC … CAACAGAGGAUUGAGCAUCA
Construct (chain): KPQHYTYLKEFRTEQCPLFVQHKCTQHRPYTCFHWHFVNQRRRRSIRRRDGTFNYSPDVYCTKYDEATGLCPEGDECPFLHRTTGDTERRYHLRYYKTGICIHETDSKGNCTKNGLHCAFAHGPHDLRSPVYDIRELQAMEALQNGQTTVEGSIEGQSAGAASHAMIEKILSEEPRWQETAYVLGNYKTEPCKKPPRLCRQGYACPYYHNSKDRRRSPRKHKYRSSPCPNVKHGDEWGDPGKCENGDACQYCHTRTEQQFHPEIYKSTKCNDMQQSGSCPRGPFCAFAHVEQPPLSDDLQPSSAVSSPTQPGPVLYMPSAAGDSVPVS
Strand | bound/input enrichment [ratio]
AGGGGCUCCAGACACCAGGGUACGGGGUGGGGACUGAUUAUAUUGCCAAAGGGUUCAACUUCUUUAACAAGCCCCCCCGUUUCCCCUGACCUUCACGAAAGCCGAAGGAGGCGGGGAAAG | 0.148
AAAGUGAAAAAUGAUCAAUUAAGAAAUUUUUGUUCCAUUGAAUUAAAUGUAAACGGAUCUCCAGAGACAGAAGCUGAUGUGGCAACAUUUUGUACUUCUAAGACAGAUGCUAUAUCAAUG | 0.138
UAAAAGAAAUAGCUGUUAUUAAUGCCUUUUUGUUUUCCAUUGAGUGUACACUACUGAAUAAGUGUAGGAGUUUUAUGUUUACCAUGUGAGUCCUGCAACACUAAAGAUAUUUUGAAUAUC | 0.623
GCGUUUCCUUCCCUUUCUGCGGGCCAGAAUCCCUGGAGGAACUUGUCUUCGGAGGAGCUGGAGAAGCAAUACUCACCCAGCAGAUGGGUCAUCCACACGAAACCAGAGGAAGUUGUUGGG | 0.0668
UUCAAAAAGAGAAGACUUGAAAAUGGAAAAUCUCGAAACUUAAGACAGCGAGGUGACGACGAGUGACUGUGAAGCUAUGGAUGGAAGGGGUGUCCUUUCCAAGCUGCUCUGUGCUCUGUG | 0.326
UUCCUUGCAAGUCUGGCUGCUGCGGGGAGUGGCACAGAUGCUCAAGUGGCCCUAGUGAAUGAAGUGAAAGCAGCCCUGGGACGGGCGCUUGCUAUGGCUGAGAGUACAGAGAAGCACGCC | 0.412

Series 2
Target: Hepatocyte nuclear factor 3-alpha (Foxa1, Mus musculus, UniProt P35582, residues 1-468, full length assumed)
Method: EMSA with sequencing
Form: double-stranded DNA, one strand shown
Matrix: in vitro
Concentration: 10 and 20 nM
Setting: whole designed probe, mean of two concentrations, ends assumed
Relative to: negative control set to 0
Reading: higher = stronger binding
Construct (chain): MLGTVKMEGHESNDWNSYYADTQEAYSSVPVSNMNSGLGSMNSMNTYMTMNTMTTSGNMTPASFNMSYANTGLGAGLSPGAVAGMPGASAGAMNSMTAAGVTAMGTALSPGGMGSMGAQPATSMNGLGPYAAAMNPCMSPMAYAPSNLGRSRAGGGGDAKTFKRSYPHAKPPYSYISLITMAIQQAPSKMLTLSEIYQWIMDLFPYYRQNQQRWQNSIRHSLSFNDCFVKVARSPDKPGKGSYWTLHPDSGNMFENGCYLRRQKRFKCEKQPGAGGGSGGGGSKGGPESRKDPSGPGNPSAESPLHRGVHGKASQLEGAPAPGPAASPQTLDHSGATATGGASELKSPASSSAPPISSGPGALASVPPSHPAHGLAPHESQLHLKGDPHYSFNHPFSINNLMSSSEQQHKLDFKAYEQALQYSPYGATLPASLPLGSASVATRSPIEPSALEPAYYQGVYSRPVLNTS
Strand | normalised bound fraction
GTGAGCGGTGCCCATTGATGGGGAACACAACATCAGGTCATTATTTATCCACTTGTCCTTTTTTTTTTTATCATTCCTTTGAACTGCCTGCATTTGCTTATCGTGATATTTCTCAGTCTGTAAACAGCCCGAGTAGCTGTTCTATTTCTCTAAATAGAGTCTTAGGTCATTTTATTATCCAGAATTGTAAGTCATCAGAATGCACCCATCTGTTGTCCTTTTCACTGGGATCGTGGGGAC | 0.123 ratio
GTGAGCGGTGCCCATTGATGGGGAACAAATGACATTTGGTGGCATTCAAGATGTAAATTACACTCAGCATACTGAACGTCCGTGCAACAGATTGCATTAGGTTCAAGCCTCAGGCTCTTAGATTGCTGAGGTTCACCTAACGTAGTTTAGCCCCATAAAGATTCCTGAAAGAGGCTCTTTGAGCTAAAGCAACTCCATAGAAAGTCATGCATGTGCAGCTTTCACTGGGATCGTGGGGAC | -0.047 ratio
GTGAGCGGTGCCCATTGATGGGGAACTATATCTAACACTGAAATTTTATTTTTTTAAATTTTTTTCTCCTACTTTCAAGCTAACAAGTTATATTTTATTTTTTAAAATAACCTGACTATGTTTACTTTGGAAAACCCTACTAAAAACCTTTCAACAACCCCACCCTACTCTCTATCTTCTCCAGATTTTGCATGTTAAATTTCTAGGACCTTGTAATCTTTTCACTGGGATCGTGGGGAC | 0.33 ratio

Series 3
Target: CCNE2, cyclin fold, Cln2 fusion (human)
Method: yeast growth competition, sequencing
Matrix: yeast
Setting: weak parent motif
Relative to: not given
Reading: higher = stronger binding
Starting sequence: MICAL3 docking peptide (human); LQLRRQLSFSEDS
Change | normalised enrichment score
Q6W | 0.351
L7F | -0.18
Q2S | 0.321
E11I | 0.0132
F9R | 0.525
L7V | 0.38
L7P | -0.0293
L3Q | -0.0233
Q6P | 0.0674
F9L | -0.12
E11C | 0.622
R4W | 0.268
L3I | 0.871
D12N | 0.535

Series 4
Target: RNA binding protein fox-1 homolog 2, RRM domain, GST-SBP tag (RBFOX2, Homo sapiens, UniProt O43251-10, residues 100-194)
Method: RNA Bind-n-Seq
Form: RNA
Matrix: in vitro
Concentration: 365 nM
Setting: natural RNA segment, single round, ends assumed
Relative to: no-protein control
Reading: higher = stronger binding
Constant ends, left off below: GGGAGUUCUACAGUCCGACGAUC … UGGAAUUCUCGGGUGCCAA
Residues (chain): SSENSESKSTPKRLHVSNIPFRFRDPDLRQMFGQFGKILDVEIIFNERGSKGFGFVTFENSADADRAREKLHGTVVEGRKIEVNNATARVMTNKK
Strand | RBNS enrichment (R)
AAGAACUUUCUGGCAGGUAGAUGGCCACCCAGGGAAUGUGGCAGGACCCUAAGAAGAGCAGGCAGCUGUGCUUGUUGAGAUAUGAGGACAGAAAAGGGACACCCUUUUAU | 0.889
GCCGCCAACGUCAUUGGGCCCAAGAUCUGCCUCGAGGACAAGAGGCUGAUGAGCAGCGUCAAGGACAACGUGGGCCGCGGGCUGAACAUCGCCCUGGUGAACGGGGUCAG | 0.357
CAGUUAGCACUGUCCUCCUGGACCAUGCUGAGGGUUGGGCCUCUCCCUCAGAGUCCUUUCUCACUGUAGUUCUGUGUGCCUGUUCCCUUCAUGCCUGAGUCAGGAAUACA | 0.232
GAUGCAGAGGCAGGCCUGCUGACCAACUUGUUGCAAUCACAAAGGUGGGGGUCCUGGUGCAGGCAGUGAACAGGCUUCUAAUGUGGGGUUCAGUAGUGCCAGCAAGUGGG | 0.587
UGCCUCUGUAGAGAGCAGCAUUCCCAGGGACCUUGGAAACAGUUGGCACUGUAAGGUGCUUGCUCCCCAAGACACAUCCUAAAAGGUGUUGUAAUGGUGAAAACGUCUUC | 0.307
GGAAGGUGUACUGGACGGCGGAGAGGAGGGCUCCCUGGCCCCUAAGUGUGGAUGCAGAGAGGUGGAGCCCAGGAAGGGUCUCUGCUUAGGCUGCAGGGGUGCCAAUGGCA | 2.78
CUGACUUGCUCUCAGGCCCACCCGCAGCUUUUCCAAAUACCUGCAGCCUUCAGCCCUGCUGCCCUGCCUGUGGGAGCAGCUUUGACUCCAGUCCAGAAGGGUUUCUGCAG | 0.461

Some of these lines once more (series 2):
Strand | normalised bound fraction
GTGAGCGGTGCCCATTGATGGGGAACTATATCTAACACTGAAATTTTATTTTTTTAAATTTTTTTCTCCTACTTTCAAGCTAACAAGTTATATTTTATTTTTTAAAATAACCTGACTATGTTTACTTTGGAAAACCCTACTAAAAACCTTTCAACAACCCCACCCTACTCTCTATCTTCTCCAGATTTTGCATGTTAAATTTCTAGGACCTTGTAATCTTTTCACTGGGATCGTGGGGAC | 0.33 ratio
GTGAGCGGTGCCCATTGATGGGGAACAAATGACATTTGGTGGCATTCAAGATGTAAATTACACTCAGCATACTGAACGTCCGTGCAACAGATTGCATTAGGTTCAAGCCTCAGGCTCTTAGATTGCTGAGGTTCACCTAACGTAGTTTAGCCCCATAAAGATTCCTGAAAGAGGCTCTTTGAGCTAAAGCAACTCCATAGAAAGTCATGCATGTGCAGCTTTCACTGGGATCGTGGGGAC | -0.047 ratio
GTGAGCGGTGCCCATTGATGGGGAACACAACATCAGGTCATTATTTATCCACTTGTCCTTTTTTTTTTTATCATTCCTTTGAACTGCCTGCATTTGCTTATCGTGATATTTCTCAGTCTGTAAACAGCCCGAGTAGCTGTTCTATTTCTCTAAATAGAGTCTTAGGTCATTTTATTATCCAGAATTGTAAGTCATCAGAATGCACCCATCTGTTGTCCTTTTCACTGGGATCGTGGGGAC | 0.123 ratio
